# Assay results from different studies.
# A part holds a random share of what one study measured. Changes are numbered by the printed parent chain.

# Study 1 — method: RNA Bind-n-Seq; molecule type: RNA; medium: in vitro; tested at: 365 nM; reference: no-protein control; direction: higher = stronger binding
# Target: RNA binding protein fox-1 homolog 2, RRM domain, GST-SBP tag (RBFOX2, Homo sapiens, UniProt O43251-10, residues 100-194)
# Setting: natural RNA segment, single round, ends assumed
# Shared flanks, not repeated: GGGAGUUCUACAGUCCGACGAUC … UGGAAUUCUCGGGUGCCAA
# Target sequence (chain): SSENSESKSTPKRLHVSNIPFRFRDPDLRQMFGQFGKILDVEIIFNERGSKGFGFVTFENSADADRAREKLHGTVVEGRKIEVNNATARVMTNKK
Strand,RBNS enrichment (R)
AUACCUCUGCCACUUUGAAAAUUGUAACAGUUAAUUACUUUGAACAUUGCUAAAAGGACAUUUUGUGUAGGGUCAAGUUAUUUUUAUAUGAGUUAAUGUGAAGUUGUAAA,0.389
UGGGUAUGUUUAAUCUGUUAUGUACUAGUGUUCUGUUUGUUAUUGUUUUGUUAAUUACACCAUAAUGCUAAUUUAAAGAGACUCCAAAUCUCAAUGAAGCCAGCUCACAG,0.417
AUGUAGAAAAUGUGACAUCUGGAUAUAAAAUGAAAAUAAAUGUUAAAUUAAAUGGACCUUAACUAAAGUGACUCUCUAUCUUCUAACGAGGAAAGCAACAAGCAAAUAUG,0.494
UAAAUUUUUAACAAAGUUUGUACAUUUUUUAUGAAAGUUACUAGUAAUGCUUUACUAAGUAGUGCAAUGAAUUUUUAUUUUUAAUCCCUGUGCCCAAUUUUGGAGUUUGA,0.785
ACUAUAUUGUCGUGUGGGUGUGUGUCUGCACCCACAUCCUCACACAUUGAUCUAGAUCUGCCUUUAUCCACUCGAAUUAUAAACAGCUCGGCUUGUCCUUGUCCCAUGUG,0.385
GUGAGUCUGAGCCGGAAGGGGUACGUGGUGGGCGCCCCUCAUUGUGGCUGGGGAGACCUCAUACCCCAUCGCCCACCCCCGUCCUCCUGGUCAUUUCCUCCCAGACACUG,0.497
ACAGCCAAAUGGAUUGACUACAGUGGGGGCAGCUAAUUAAUGAUUAAUCAGAAGCAUUUGAUAAUAAUCUGCCUUGCAGCCACGCCUUCAAACUUCAUUGUUGCUUUCUC,0.378
UGCAUGCAUCUGCAGGGCCUGUGAGAUCUGGUGUAAAAAGAGACAUGACAUGUGGAGAUGGGACUUAGUGUGUGAGGCAUAGGGUCAUUGGAGAUUCUUCAGACUCGGGG,9.06
AUGGCAGGGGCUCCUCUGUCUGGCCUGCCUUUUUUUCCUGGUCAGCUGCUCUUAGCGCCGGCUCUGCCUCUCCACCCUUGGCAGGGCUGGCUGGAGUUGCUGUGGGGACU,0.345
AAAAAGUAUAUAUACAUAUCUUUUGAAGUGUUAAAAGGAAACUAGUACUUUAUAUUCUUUAUCAUAUCACUUUUUGUAAGUGUUGAAUAUAUUCCUGUUUAUUUUUCUAU,0.444
ACAGCUUGCCUUUUUAAUGUUAGUCACAAUGUUUUUGUGGUUUGAAGUUUAGUUUAAUGUUAGUGCAGUGACAGGAAAUACACAUUAUGCUGAUGUUGAUGACAGAAUUU,1.03
CUGUUUGUAUCAUGGACUGUCAUGCUCUAUGCCUGGUCCUGGGGUCUCUAGAGGAUACUCAUCUGGAGUCUCUGAAGACUUGACCCAUAUUUCCAAGACCCUACAACUCC,0.248

# Study 2 — method: competition protein-binding microarray; molecule type: double-stranded DNA, one strand shown; medium: in vitro; tested at: 2 µM; with: Cbf1 competitor, 0.05 µM; direction: higher = stronger binding; shared flanks, not repeated: … GTCTTGATTCGCTTGACGCTGCTG
# Target: Phosphate system positive regulatory protein PHO4, full length, GST-tagged (PHO4, Saccharomyces cerevisiae, UniProt P07270, residues 1-312)
# Setting: whole 60-bp probe, lowest competitor level
# Residues (chain): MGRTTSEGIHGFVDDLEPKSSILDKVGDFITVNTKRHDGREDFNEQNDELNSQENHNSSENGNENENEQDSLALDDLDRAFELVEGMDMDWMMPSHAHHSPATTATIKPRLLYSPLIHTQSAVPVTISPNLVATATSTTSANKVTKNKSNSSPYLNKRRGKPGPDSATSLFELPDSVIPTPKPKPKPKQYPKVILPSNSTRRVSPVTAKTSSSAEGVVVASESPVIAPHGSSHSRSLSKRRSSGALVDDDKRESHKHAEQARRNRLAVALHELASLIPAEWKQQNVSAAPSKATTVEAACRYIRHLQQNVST
Strand,fluorescence intensity [a.u.]
AAAGCGGTAATTTGTCACTAAACTTCACATATCTAT,3250
AATCGAAAAATTTAGCACGTGGGACGGTAAGCATAA,20000
GAGGCAAACCATCACCATGTGGTGGTTTCAACATGA,9700
TTACCCCAACATTACCTCGTGGTGAGTGGAGAATCA,12000
CAAACGGTTTGGCCGCTCGTGTCGGCATTGGTCAAA,7060
CATACCCAACCTTGACGAGTGGGTGAAGATATTTGT,4730
CGTCCTAGTGATTTTCACGTGATATCCATGAGGAAG,13400
TGCGCAACAACTTGTCGAGTGGGTGTATGTCTAGAA,4400
AAAGCGGTAATTTTTCACGTGGGGTCAAATATCTAT,18000
TGGGGCAAAAACCATCACGGGACTTATGTTTCGGGA,5950
TACTGCTCCAGGGGTGACTTGATGTCCTCTGCTGGG,3210
ATAAGGAATAAAAAACACGTGCTAATAAAAAATCAA,18000
TGTGTTGGATCTCAACACGGGGTACCTCCGTATAAG,9410

# Study 3 — method: RNA Bind-n-Seq; molecule type: RNA; medium: in vitro; tested at: 1 µM; setting: whole 134-nt RNA, ends assumed; with: 150 mM KCl; reference: input library; direction: higher = stronger binding
# Target: Ras GTPase-activating protein-binding protein 1, C-terminal RGG region (G3BP1, Homo sapiens, UniProt Q13283)
# Sequence of UniProt Q13283 (whole entry, looked up): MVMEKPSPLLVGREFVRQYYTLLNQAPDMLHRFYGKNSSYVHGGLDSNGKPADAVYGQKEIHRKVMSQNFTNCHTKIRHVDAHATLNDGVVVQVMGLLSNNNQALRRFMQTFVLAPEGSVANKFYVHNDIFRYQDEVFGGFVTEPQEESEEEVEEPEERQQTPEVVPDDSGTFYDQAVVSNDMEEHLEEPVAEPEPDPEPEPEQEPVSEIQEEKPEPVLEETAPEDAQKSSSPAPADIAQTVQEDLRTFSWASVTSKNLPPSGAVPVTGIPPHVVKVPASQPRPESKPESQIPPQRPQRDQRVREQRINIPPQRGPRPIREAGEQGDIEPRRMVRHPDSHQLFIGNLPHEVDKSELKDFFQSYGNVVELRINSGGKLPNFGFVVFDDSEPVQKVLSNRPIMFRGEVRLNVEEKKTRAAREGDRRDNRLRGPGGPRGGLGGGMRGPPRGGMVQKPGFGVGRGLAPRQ
# Shared flanks, not repeated: GGGAGUUCUACAGUCCGACGAUC … UGGAAUUCUCGGGUGUCAAGG
Strand,log2 enrichment
AAGUCCUGUGCUACACAUCGUAUGUACCGAAUCGGGAAAAAAAGGGAGGGUUUGGGAAAGUAUUAUGUUACGCCGUUCGGAUCUGCACUU,0.961
UCAAGUCCUGUGCUACACAUCGUAUGUACCGAAUCGGUUUGGUGGUUUUUUUGGAAAGUAUUAUGUUACGCCGUUCGGAUCUGCACUUCC,-1.03
AGUCCUGUGCUACACAUCGUAUGUACCGAAUCAAAUUUUUAAAUUUAAACCCCCAAAAAAGUAUUAUGUUACGCCGUUCGGAUCUGCACU,-1.13
UCCUGUGCUACACAUCGUAUGUACCGAAUCGGAAAAAAAGGAAAAAAAGGGAAAAAAAGGAAAGUAUUAUGUUACGCCGUUCGGAUCUGC,-0.912
CACAGACAACACGCACCCACACAGACACAGAGGGAAGGGGUUGGGAUGGGGACAGGGUGCACAGCAGGGCGGGGUAGGACCCAAGCCCCU,-1.05
AGUCCUGUGCUACACAUCGUAUGUACCGAAUCAAACCCCCAAAUUUUUAAAUUUAAAAAAGUAUUAUGUUACGCCGUUCGGAUCUGCACU,-0.987
GCAGGAAGUAAAAACAAAUGGAAAUGCUUCGGAUAGUGGCAGGGGUGGGGGUUGAAAAGGAAAGGGUGGGAUGGGAGUGGGUAAAGAGUU,1.79
GCAGGAAGUAAAAACAAAUGGAAAUGCUUCGGAUAGUGGCAGGGGUGGGGGUUGCUAAGGAAAGGGUGGGAUGGGGGUGGGUAAAGAGUU,1.33
GCAGGAAGUAAAAACAAAUGGAAAUGCUUCGGAUAGUGGCAGGGGUGGGGGUUGCUAAGGAAAGGGUGGGAUGAGAGUGGGUAAAGAGUU,1.77
UUGGCUCGAGAGAUUGAAUCAAGCCCCCAGUACCGCCUACGGAUCGCCAUGGAGAACGACGAUGGGCGCACUGAAGAGGAGAAGCACAGU,-1.29

# Study 4 — method: DHFR PCA, dose-response; medium: yeast; setting: Hill fit, mean, not affinity; with: (+)-ABA, dose series; direction: lower = more sensitive
# Target: ABI1, truncated, D143A, DHFR fusion (Arabidopsis thaliana, UniProt P49597)
# Parent: PYL1, truncated, DHFR fusion (Arabidopsis thaliana, UniProt Q8VZS8); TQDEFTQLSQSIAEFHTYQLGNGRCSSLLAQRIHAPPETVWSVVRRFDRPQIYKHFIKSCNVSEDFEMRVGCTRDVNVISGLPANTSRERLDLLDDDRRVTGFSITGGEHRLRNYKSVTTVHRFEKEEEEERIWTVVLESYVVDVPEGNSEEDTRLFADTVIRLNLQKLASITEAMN
Change,ABA EC50 [µM]
V100Q,87.1
Y18P,2.96
R98I,11.5
E130F,5.28
S11C,1.78
M176K,3.11
Q10F,22.5
M176H,3.3
D95K,134
H122M,404
N77Y,2.65
D97V,2.7
D75M,1.02
T39S,4.57
V118M,6.98

# Study 5 — method: protein binding microarray; molecule type: double-stranded DNA, one strand shown; medium: in vitro; tested at: not given; reference: not given; direction: higher = stronger binding
# Target: Histone acetyltransferase KAT6A, winged helix 2, GST fusion (KAT6A, Homo sapiens, UniProt Q92794, residues 85-181)
# Setting: 8-mer, flanks averaged, mean of 2 arrays, mostly near background
# Target sequence (chain): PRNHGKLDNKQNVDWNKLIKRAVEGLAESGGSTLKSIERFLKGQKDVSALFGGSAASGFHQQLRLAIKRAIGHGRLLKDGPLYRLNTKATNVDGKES
Strand,E-score
TCGCAGAA,0.128
ACTCGCAA,0.0895
AAAACACC,-0.00968
CCCTAACG,0.037
AACTTTCA,0.147
GGATCCTA,-0.105
AATCCATG,0.158
GCCTGAAA,0.0963
CGTTTGGA,-0.143
CCGCAGAA,0.163
GGCAAAGA,0.107
AGCCATAG,0.012
ACCAACGC,-0.0752
CATCTACA,-0.152
AAGTCGTA,-0.216
CCTTCATC,-0.044
CGTCGATA,-0.103
CCTCCAGA,0.111
AGACCGGC,-0.049
ACTATGAA,-0.042
CTCACGCA,0.209
CACATATA,-0.103
CCGTACCA,0.041
AGCGGGCA,-0.0261
TCCGTCCA,0.0731

# Study 6 — method: universal PBM; molecule type: double-stranded DNA, one strand shown; medium: in vitro; tested at: 600 nM; direction: higher = stronger binding
# Target: Sal-like protein 4, full length isoform A (SALL4, Homo sapiens, UniProt Q9UJQ4, residues 1-1053)
# Sequence of UniProt Q9UJQ4 (whole entry, looked up): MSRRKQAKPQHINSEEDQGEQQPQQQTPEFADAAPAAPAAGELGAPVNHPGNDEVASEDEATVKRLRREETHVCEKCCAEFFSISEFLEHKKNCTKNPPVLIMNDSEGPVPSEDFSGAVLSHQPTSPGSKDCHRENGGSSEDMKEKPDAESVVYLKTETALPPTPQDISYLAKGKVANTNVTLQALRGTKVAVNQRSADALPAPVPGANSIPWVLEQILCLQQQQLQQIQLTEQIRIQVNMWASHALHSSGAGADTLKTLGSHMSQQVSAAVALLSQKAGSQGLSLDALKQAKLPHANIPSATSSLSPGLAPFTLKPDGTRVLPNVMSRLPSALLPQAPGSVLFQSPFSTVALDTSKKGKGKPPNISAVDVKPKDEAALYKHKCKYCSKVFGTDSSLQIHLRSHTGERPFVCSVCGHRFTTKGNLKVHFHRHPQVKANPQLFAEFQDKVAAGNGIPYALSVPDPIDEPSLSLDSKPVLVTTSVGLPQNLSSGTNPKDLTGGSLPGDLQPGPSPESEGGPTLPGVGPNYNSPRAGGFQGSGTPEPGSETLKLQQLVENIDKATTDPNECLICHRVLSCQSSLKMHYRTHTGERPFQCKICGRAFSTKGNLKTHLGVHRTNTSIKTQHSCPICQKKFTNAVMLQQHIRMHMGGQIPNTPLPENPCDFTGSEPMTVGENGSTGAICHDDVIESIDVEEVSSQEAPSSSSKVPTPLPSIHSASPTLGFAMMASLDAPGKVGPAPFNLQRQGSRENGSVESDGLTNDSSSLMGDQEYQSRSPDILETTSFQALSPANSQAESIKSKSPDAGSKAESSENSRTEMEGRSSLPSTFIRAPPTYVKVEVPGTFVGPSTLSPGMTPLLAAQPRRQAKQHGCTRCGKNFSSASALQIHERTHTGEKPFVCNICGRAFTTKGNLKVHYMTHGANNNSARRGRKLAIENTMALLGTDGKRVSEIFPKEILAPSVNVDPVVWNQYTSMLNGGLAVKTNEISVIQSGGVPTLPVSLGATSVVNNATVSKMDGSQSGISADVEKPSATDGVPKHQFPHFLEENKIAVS
# Setting: 8-mer, flanks averaged, mean of replicates
Strand,E-score
AATGCTGA,0.028
ATGTACTC,0.0757
AAAGAAGG,0.0205
GCATCCGC,-0.129
AGGCTCGC,-0.297
AAGCTTGA,-0.0133
AATAGAGT,0.188
TGGAGCAA,0.0757
AGGCTAAA,-0.0386
ATGCCATC,0.12
TCGGTTAA,0.125
CAACGGTA,-0.17
AATAAATC,0.285
ATGAACGG,-0.0213
GAATGTAA,0.267
CCGCCGTA,-0.26
CGGAGCCG,-0.389
AACTCCTA,0.0375
ACCGCCGC,-0.234
TCTTCCCA,-0.139
CTGAGTCA,-0.0729
CGTAAGCC,-0.163
GCATGGGA,-0.199
CGCACTGC,-0.155
AAGGGAGT,-0.238

# Study 7 — target: CCND2, cyclin fold, Cln2 fusion (human); method: yeast growth competition, sequencing; medium: yeast; setting: weak parent motif; reference: not given; direction: higher = stronger binding
# Parent: PKN2 docking peptide (human); VSAVQKLDFSDTM
Change,normalised enrichment score
T12A,0.685
V4G,-0.00341
D8Y,0.414
F9E,0.141
V1W,0.802
T12L,0.707
V1I,0.486
A3P,0.474
K6V,0.282
K6S,0.418
K6E,0.0339
L7R,-0.27
L7G,-0.275
D8L,0.302
V4I,0.761

# For quick reference, copied from above (study 2):
Strand,fluorescence intensity [a.u.]
TTACCCCAACATTACCTCGTGGTGAGTGGAGAATCA,12000
TGTGTTGGATCTCAACACGGGGTACCTCCGTATAAG,9410
TACTGCTCCAGGGGTGACTTGATGTCCTCTGCTGGG,3210
TGCGCAACAACTTGTCGAGTGGGTGTATGTCTAGAA,4400
AATCGAAAAATTTAGCACGTGGGACGGTAAGCATAA,20000
CAAACGGTTTGGCCGCTCGTGTCGGCATTGGTCAAA,7060
GAGGCAAACCATCACCATGTGGTGGTTTCAACATGA,9700
ATAAGGAATAAAAAACACGTGCTAATAAAAAATCAA,18000
CGTCCTAGTGATTTTCACGTGATATCCATGAGGAAG,13400
CATACCCAACCTTGACGAGTGGGTGAAGATATTTGT,4730
AAAGCGGTAATTTGTCACTAAACTTCACATATCTAT,3250
AAAGCGGTAATTTTTCACGTGGGGTCAAATATCTAT,18000
TGGGGCAAAAACCATCACGGGACTTATGTTTCGGGA,5950
